Results of several laboratories.
Lines come from different studies, so protocols differ. Numbers after ± are the reported error.
HLA class I histocompatibility antigen, A alpha chain allele A*29:02: HLA class I histocompatibility antigen, A alpha chain, allele A*29:02 (Homo sapiens, UniProt P04439)
Polyprotein P1234 nsP2 protease domain: Polyprotein P1234, nsP2 protease domain (Chikungunya virus, UniProt Q5XXP4)
Chain of UniProt Q5XXP4 (whole entry, looked up): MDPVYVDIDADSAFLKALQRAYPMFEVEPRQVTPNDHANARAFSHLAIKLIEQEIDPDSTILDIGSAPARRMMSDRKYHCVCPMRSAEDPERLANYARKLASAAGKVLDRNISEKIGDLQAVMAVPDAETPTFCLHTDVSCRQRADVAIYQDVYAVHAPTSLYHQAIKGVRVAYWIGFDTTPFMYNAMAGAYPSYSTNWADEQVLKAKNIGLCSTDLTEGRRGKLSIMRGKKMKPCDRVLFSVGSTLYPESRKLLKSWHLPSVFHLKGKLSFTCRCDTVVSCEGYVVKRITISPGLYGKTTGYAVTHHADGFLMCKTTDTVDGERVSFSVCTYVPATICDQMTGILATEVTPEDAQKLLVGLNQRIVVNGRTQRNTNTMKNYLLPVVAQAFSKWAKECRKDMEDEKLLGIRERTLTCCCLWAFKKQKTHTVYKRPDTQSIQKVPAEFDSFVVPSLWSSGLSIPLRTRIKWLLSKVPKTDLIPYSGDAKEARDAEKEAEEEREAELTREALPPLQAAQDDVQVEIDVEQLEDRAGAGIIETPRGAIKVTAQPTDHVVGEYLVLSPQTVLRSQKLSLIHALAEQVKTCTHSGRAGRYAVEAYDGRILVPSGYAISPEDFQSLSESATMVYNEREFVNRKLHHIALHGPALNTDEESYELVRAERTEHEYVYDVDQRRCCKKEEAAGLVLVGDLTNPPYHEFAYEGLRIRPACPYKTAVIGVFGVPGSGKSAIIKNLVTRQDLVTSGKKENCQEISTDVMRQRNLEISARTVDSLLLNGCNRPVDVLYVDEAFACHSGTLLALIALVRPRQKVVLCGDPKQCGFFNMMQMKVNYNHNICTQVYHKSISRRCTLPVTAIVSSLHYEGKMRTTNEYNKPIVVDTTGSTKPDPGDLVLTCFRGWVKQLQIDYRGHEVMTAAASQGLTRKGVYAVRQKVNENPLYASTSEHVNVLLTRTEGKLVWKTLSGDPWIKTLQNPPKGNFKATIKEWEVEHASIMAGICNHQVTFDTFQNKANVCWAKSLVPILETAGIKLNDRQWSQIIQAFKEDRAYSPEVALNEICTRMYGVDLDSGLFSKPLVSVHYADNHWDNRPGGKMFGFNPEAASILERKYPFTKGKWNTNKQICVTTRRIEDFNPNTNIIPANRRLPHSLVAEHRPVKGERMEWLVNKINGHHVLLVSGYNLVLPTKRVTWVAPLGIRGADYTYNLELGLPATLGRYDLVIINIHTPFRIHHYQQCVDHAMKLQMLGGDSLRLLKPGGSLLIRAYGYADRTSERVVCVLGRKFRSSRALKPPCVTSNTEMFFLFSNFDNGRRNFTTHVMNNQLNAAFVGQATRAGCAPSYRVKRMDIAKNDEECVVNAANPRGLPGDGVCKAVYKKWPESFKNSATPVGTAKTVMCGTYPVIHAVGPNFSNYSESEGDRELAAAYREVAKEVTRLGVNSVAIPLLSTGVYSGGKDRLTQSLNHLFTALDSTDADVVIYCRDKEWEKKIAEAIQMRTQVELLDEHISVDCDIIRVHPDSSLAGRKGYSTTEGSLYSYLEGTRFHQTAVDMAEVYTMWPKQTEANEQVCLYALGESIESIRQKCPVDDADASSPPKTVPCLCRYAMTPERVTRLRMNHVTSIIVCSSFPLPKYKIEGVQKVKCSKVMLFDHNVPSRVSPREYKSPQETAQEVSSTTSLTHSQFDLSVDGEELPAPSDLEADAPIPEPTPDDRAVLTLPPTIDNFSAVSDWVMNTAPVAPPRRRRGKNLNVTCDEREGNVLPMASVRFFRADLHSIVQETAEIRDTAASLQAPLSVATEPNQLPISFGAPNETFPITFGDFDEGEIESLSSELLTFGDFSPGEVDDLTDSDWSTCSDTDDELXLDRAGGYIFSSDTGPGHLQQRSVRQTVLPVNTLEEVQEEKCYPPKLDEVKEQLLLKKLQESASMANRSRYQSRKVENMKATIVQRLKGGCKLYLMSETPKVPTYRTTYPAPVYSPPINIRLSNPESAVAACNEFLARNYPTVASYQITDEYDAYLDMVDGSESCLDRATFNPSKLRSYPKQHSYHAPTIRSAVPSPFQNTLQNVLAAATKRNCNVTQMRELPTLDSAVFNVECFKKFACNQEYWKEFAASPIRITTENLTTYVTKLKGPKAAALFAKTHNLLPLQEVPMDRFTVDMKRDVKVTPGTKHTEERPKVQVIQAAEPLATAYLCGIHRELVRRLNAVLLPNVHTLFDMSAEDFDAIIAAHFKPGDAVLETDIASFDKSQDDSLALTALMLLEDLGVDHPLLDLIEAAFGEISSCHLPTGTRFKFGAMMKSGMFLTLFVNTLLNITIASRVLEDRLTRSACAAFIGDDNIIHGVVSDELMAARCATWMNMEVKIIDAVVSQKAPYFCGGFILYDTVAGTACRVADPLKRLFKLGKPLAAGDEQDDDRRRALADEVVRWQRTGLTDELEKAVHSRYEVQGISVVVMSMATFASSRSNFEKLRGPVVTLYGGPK
nanI: Sialidase (nanI, Clostridium perfringens, UniProt A0A0H2YQR1)
Chain of UniProt Q8JUX6 (whole entry, looked up): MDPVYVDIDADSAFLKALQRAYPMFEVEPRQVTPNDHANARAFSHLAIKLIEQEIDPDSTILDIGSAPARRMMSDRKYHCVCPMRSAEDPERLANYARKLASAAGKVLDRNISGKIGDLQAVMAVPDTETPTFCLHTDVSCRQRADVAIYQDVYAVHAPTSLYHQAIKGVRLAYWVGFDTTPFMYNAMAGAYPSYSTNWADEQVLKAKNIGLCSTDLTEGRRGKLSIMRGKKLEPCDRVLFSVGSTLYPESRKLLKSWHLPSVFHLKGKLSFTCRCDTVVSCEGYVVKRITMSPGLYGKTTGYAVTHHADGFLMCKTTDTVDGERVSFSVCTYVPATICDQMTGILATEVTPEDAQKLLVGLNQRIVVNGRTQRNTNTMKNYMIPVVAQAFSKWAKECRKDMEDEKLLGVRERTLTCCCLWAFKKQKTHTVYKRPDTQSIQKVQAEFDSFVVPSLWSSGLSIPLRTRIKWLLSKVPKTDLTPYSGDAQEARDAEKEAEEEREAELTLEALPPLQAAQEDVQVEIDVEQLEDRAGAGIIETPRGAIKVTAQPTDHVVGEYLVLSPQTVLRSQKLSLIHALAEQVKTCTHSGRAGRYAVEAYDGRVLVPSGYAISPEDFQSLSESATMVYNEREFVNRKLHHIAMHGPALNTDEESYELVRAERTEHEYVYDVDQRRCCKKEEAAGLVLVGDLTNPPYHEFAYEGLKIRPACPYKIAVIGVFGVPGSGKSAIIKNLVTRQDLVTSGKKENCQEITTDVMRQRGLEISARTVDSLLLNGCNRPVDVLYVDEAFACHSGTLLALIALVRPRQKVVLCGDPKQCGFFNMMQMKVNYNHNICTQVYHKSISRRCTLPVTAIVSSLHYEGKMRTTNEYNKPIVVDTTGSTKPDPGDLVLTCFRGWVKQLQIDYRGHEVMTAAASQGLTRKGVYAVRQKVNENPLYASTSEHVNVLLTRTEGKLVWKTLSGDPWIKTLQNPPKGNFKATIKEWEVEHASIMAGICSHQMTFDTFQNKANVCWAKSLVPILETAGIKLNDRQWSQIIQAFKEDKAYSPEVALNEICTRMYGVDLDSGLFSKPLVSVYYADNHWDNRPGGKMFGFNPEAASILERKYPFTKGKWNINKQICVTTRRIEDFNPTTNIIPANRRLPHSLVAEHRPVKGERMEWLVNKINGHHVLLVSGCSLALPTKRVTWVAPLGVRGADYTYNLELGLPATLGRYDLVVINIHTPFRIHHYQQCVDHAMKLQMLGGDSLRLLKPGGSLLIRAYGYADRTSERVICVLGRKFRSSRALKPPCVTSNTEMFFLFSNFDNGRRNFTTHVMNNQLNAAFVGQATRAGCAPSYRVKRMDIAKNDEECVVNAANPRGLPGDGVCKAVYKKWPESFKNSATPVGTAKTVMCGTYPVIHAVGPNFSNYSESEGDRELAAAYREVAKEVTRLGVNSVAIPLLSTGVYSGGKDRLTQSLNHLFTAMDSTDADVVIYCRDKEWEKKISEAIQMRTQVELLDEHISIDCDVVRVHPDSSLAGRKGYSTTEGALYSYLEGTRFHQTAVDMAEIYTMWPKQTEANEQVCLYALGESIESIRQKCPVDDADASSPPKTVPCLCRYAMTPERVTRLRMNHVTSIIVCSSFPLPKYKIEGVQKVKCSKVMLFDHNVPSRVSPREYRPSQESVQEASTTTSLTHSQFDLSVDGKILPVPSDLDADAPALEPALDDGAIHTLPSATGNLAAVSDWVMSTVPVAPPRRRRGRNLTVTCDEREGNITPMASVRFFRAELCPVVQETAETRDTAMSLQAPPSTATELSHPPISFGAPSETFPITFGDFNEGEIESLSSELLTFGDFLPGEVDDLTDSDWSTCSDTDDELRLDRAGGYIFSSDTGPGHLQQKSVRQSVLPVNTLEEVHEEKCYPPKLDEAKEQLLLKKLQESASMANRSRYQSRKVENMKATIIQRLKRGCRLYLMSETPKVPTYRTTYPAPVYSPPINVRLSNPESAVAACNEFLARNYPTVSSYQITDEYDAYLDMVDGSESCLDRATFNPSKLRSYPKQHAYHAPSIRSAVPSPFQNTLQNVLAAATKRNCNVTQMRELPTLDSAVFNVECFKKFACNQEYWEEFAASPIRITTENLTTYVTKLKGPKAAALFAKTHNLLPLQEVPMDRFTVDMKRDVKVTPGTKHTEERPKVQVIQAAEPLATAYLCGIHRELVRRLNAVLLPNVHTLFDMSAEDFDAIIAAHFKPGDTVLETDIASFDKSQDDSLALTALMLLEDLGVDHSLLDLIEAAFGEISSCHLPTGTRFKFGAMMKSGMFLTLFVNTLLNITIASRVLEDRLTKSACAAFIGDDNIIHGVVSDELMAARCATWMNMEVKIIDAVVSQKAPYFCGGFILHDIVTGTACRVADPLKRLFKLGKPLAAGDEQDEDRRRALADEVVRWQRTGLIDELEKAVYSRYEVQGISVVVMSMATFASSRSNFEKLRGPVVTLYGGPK
Chain of UniProt A0A7H0DNC1 (whole entry, looked up): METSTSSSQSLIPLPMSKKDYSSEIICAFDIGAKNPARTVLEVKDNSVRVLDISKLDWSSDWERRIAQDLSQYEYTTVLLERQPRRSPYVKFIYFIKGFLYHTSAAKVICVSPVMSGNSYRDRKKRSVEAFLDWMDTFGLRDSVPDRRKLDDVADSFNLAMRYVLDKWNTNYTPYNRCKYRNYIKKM

SMILES | target | test | system | setting | IC50 [µM]
CC[C@H](C)[C@H](NC(=O)[C@H](Cc1ccc(O)cc1)NC(=O)[C@@H](N)C(C)C)C(=O)N[C@@H](CC(N)=O)C(=O)N[C@@H](Cc1c[nH]cn1)C(=O)N1CCC[C@H]1C(=O)N[C@@H](Cc1ccccc1)C(=O)N[C@@H](CCSC)C(=O)N[C@@H](Cc1ccc(O)cc1)C(=O)O | HLA class I histocompatibility antigen, A alpha chain allele A*29:02 | biochemical |  |  | 0.00068
CC(=O)N[C@H]1[C@H]([C@H](O)[C@H](O)CO)OC(C(=O)O)=C[C@@H]1N=C(N)N | neuraminidase (Influenza A virus, UniProt G1FHY4) |  |  | concentration not given | 0.00126
CCCC(C(=O)Nc1cc(NC2CCNC2)ccc1C)n1cccc2nc(SCc3ccc(F)cc3)nc1-2 (centres unmarked) | Replicase polyprotein 1ab, papain-like protease (rep, Severe acute respiratory syndrome-related coronavirus, UniProt P0C6X7) | enzyme activity |  |  | 0.638 ± 0.352
Cn1cnc(Cn2c(=O)[nH]/c(=N\c3cc4cn(C)nc4cc3Cl)n(Cc3cc(F)c(F)cc3F)c2=O)n1 | Cytochrome P450 2B6 (CYP2B6, Homo sapiens, UniProt P20813) | inhibitor | human liver microsomes | 30 min preincubation, preincubation with NADPH, together with: efavirenz 5 µM | > 100
CS(=O)(=O)c1cc(C#N)cc(NC(=O)CCl)c1 | Polyprotein P1234 nsP2 protease domain | enzyme activity, inhibitor, FRET |  | 90 min, 30 min preincubation | 4.5 ± 2.3
O=C1c2ccccc2C(c2ccccc2F)C(=O)N1O (centres unmarked) | Resolvase OPG149 (OPG149, Monkeypox virus, UniProt A0A7H0DNC1) |  |  |  | 1.33
O=C(O)C(=O)C[C@@H](O)[C@@H](O)[C@H](O)[C@H](O)CO | Spike glycoprotein, with ACE2 (Severe acute respiratory syndrome coronavirus 2, UniProt P0DTC2) | binding to human ACE2, inhibitor | SARS-CoV-2 |  | 0.00095
CC(C)COc1ncc(C(=O)NCC=CS(C)(=O)=O)cc1Cl | Polyprotein P1234 nsP2 protease domain | protease activity, inhibitor, FRET |  | 90 min, 30 min preincubation | 23 ± 2
CCC(C(=O)Nc1cc(NC2CCNC2)ccc1C)n1cc(F)cc2nc(SCc3ccc(F)cc3)nc1-2 (centres unmarked) | Replicase polyprotein 1ab, papain-like protease (rep, Severe acute respiratory syndrome-related coronavirus, UniProt P0C6X7) | enzyme activity |  |  | 0.223 ± 0.084
O=C(CCl)NC(=O)NCCc1cccs1 | Polyprotein P1234 nsP2 protease domain | enzyme activity, inhibitor, FRET |  | 90 min, 30 min preincubation | 18 ± 1
O=c1cc(-c2ccc(O)cc2)oc2cc(O)c(O)c(O)c12 | Replicase polyprotein 1ab, main protease (rep, Severe acute respiratory syndrome-related coronavirus, UniProt P0C6X7) | enzyme activity, inhibitor |  |  | 16.4
CCC(C(=O)Nc1cc(NC2CCOC2)ccc1C)n1cc(Br)cc2nc(SCc3ccc(F)cc3)nc1-2 (centres unmarked) | Replicase polyprotein 1ab, papain-like protease (rep, Middle East respiratory syndrome-related coronavirus, UniProt K9N7C7) | enzyme activity, inhibitor |  |  | > 100
CCCCCCCCCCCCCCCC(=O)CP(=O)(O)O | Glycerol-3-phosphate acyltransferase 3 (plsY3, Bacillus anthracis, UniProt Q81Y92) | inhibitor |  |  | 90
O=C(O)C1=C[C@H](O)[C@@H](NCc2ccc(-c3ccccc3)cc2)[C@H]([C@H](O)[C@H](O)CO)O1 | nanI | enzyme activity, inhibitor |  |  | 21
CCC(C(=O)Nc1ccccc1C)n1cccc2nc(SCc3ccccc3F)nc1-2 (centres unmarked) | Replicase polyprotein 1ab, papain-like protease (rep, Severe acute respiratory syndrome-related coronavirus, UniProt P0C6X7) | enzyme activity |  |  | 3.55 ± 0.22
O=C(CSC(=S)N1CCCC1)c1cc(Br)cc(Br)c1O | Replicase polyprotein 1ab, nsp13 helicase (rep, Severe acute respiratory syndrome coronavirus 2, UniProt P0DTD1) | helicase ATPase activity, inhibitor, Kinase-Glo luminescence |  |  | > 150
CC[C@H](C)[C@H](NC(=O)[C@@H](NC(=O)[C@@H](N)Cc1ccccc1)[C@@H](C)O)C(=O)N[C@@H](CC(=O)O)C(=O)N[C@@H](Cc1ccccc1)C(=O)N[C@@H](CCCCN)C(=O)N[C@@H](CC(C)C)C(=O)N[C@@H](CCCCN)C(=O)N[C@@H](Cc1ccc(O)cc1)C(=O)O | HLA class I histocompatibility antigen, A alpha chain, allele A*26:01 (Homo sapiens, UniProt P04439) | biochemical |  |  | 0.021
O=C(N1CCC2(CC1)C[C@@H](CN1CCCCS1(=O)=O)CCO2)C1(c2cc(F)cc(F)c2)CCCC1 | Polyprotein P1234, nsP2 (Chikungunya virus, UniProt Q8JUX6) | nsP2 RNA unwinding, inhibitor, FRET strand separation |  |  | 56
CC[C@H](C)[C@H](NC(=O)[C@@H](NC(=O)[C@@H](N)CCCNC(=N)N)[C@@H](C)O)C(=O)N[C@@H](CCCCN)C(=O)N[C@H](C(=O)N[C@@H](Cc1ccccc1)C(=O)N[C@H](C(=O)N[C@H](C(=O)N[C@H](C(=O)O)C(C)C)[C@@H](C)O)[C@@H](C)O)C(C)C | HLA class I histocompatibility antigen, A alpha chain (Homo sapiens, UniProt P04439) | binding, competitor |  |  | 12.2
C[C@@H](O)[C@H](NC(=O)[C@H](CC(N)=O)NC(=O)[C@H](CC(N)=O)NC(=O)[C@@H](N)Cc1ccccc1)C(=O)N[C@@H](CCCCN)C(=O)N[C@@H](Cc1ccccc1)C(=O)N[C@@H](CC(=O)O)C(=O)N[C@@H](Cc1ccc(O)cc1)C(=O)N[C@@H](Cc1ccc(O)cc1)C(=O)O | HLA class I histocompatibility antigen, A alpha chain, allele A*01:01 (Homo sapiens, UniProt P04439) | biochemical |  |  | > 10
CCC(CC)O[C@@H]1C=C(C(=O)O)C[C@H](N)[C@H]1NC(C)=O | Neuraminidase (Influenza A virus, UniProt G9HX50) | enzyme activity, inhibitor | swine influenza A virus, H3N2 |  | 0.00015 ± 1e-05
CCN[C@H]1[C@H]([C@H](O)[C@H](O)CO)OC(C(=O)O)=C[C@@H]1O | nanI | enzyme activity, inhibitor |  |  | > 500
CCC(C(=O)Nc1ccccc1C)n1cccc2nc(SCc3cccc(F)c3)nc1-2 (centres unmarked) | Replicase polyprotein 1ab, papain-like protease (rep, Severe acute respiratory syndrome-related coronavirus, UniProt P0C6X7) | enzyme activity |  |  | 3.96 ± 0.15
O=C(CCl)Nc1cc(C2CC2)nn1-c1ccccc1 | Polyprotein P1234 nsP2 protease domain | protease activity, inhibitor, FRET |  | 90 min, 30 min preincubation | 41 ± 17
CCC(C(=O)Nc1cc(NC2CCOC2)ccc1C)n1cc(F)cc2nc(SCc3ccc(F)cc3)nc1-2 (centres unmarked) | Replicase polyprotein 1ab, papain-like protease (rep, Middle East respiratory syndrome-related coronavirus, UniProt K9N7C7) | enzyme activity, inhibitor |  |  | > 100
CC[C@H](C)[C@H](NC(=O)[C@H](Cc1ccccc1)NC(=O)[C@@H]1CCCN1C(=O)[C@H](Cc1c[nH]cn1)NC(=O)[C@H](CC(N)=O)NC(=O)[C@@H](NC(=O)[C@H](Cc1ccc(O)cc1)NC(=O)[C@@H](N)C(C)C)[C@@H](C)CC)C(=O)N[C@@H](Cc1ccc(O)cc1)C(=O)O | HLA class I histocompatibility antigen, A alpha chain allele A*29:02 | biochemical |  |  | 0.0065
CCC(C(=O)Nc1cc(NC2CNC2)ccc1C)n1cc(Cl)cc2nc(SCc3ccc(F)cc3)nc1-2 (centres unmarked) | Replicase polyprotein 1ab, papain-like protease (rep, Middle East respiratory syndrome-related coronavirus, UniProt K9N7C7) | enzyme activity, inhibitor |  |  | > 100
CC(C)[C@H](N)C(=O)N[C@H](C(=O)N[C@@H](CC(=O)O)C(=O)N[C@H](C(=O)N[C@@H](CC(N)=O)C(=O)N[C@@H](CCCCN)C(=O)N[C@@H](Cc1ccccc1)C(=O)N[C@@H](C)C(=O)N[C@@H](Cc1c[nH]cn1)C(=O)N[C@@H](Cc1ccc(O)cc1)C(=O)O)[C@@H](C)O)[C@@H](C)O | HLA class I histocompatibility antigen, A alpha chain, allele A*30:02 (Homo sapiens, UniProt P04439) | biochemical |  |  | 0.545
CCC(CC)[C@H](NC(C)=O)[C@@H]1[C@H](O)[C@@H](C(=O)O)C[C@H]1N=C(N)N | Neuraminidase (Influenza A virus, UniProt L0MUX9) | enzyme activity, inhibitor | swine influenza A virus, H1N2 |  | 0.00014 ± 3e-05

A few entries again:
SMILES | target | test | system | setting | IC50 [µM]
CC(=O)N[C@H]1[C@H]([C@H](O)[C@H](O)CO)OC(C(=O)O)=C[C@@H]1N=C(N)N | neuraminidase (Influenza A virus, UniProt G1FHY4) |  |  | concentration not given | 0.00126
CC(C)COc1ncc(C(=O)NCC=CS(C)(=O)=O)cc1Cl | Polyprotein P1234 nsP2 protease domain | protease activity, inhibitor, FRET |  | 90 min, 30 min preincubation | 23 ± 2
O=c1cc(-c2ccc(O)cc2)oc2cc(O)c(O)c(O)c12 | Replicase polyprotein 1ab, main protease (rep, Severe acute respiratory syndrome-related coronavirus, UniProt P0C6X7) | enzyme activity, inhibitor |  |  | 16.4
